# Measurements collected from several papers.
# Lines come from different studies, so protocols differ. ± marks the error that the study gave.
# tmk: Thymidylate kinase (tmk, Mycobacterium tuberculosis, UniProt P9WKE1)
# Chain of UniProt P21554 (whole entry, unmodified, looked up): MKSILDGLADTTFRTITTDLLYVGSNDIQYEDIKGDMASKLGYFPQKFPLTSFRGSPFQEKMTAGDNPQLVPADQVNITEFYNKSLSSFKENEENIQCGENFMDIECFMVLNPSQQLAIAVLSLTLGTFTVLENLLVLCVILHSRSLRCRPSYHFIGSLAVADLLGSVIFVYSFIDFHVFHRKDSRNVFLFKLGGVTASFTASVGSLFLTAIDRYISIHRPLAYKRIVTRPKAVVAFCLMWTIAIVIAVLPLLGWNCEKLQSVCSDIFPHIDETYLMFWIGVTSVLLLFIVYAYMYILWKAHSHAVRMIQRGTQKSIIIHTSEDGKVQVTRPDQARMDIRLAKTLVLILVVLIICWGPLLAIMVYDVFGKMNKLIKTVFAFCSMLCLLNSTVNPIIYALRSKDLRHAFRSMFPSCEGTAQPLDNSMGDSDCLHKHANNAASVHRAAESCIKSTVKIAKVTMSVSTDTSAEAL
# Chain of UniProt P9WKE1 (whole entry, looked up): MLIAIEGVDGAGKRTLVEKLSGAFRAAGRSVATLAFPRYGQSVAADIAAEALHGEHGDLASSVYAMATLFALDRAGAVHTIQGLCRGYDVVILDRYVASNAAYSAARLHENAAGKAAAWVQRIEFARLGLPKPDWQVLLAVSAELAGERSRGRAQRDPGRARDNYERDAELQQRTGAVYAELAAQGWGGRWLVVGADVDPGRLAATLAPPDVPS
# Chain of UniProt P30411 (whole entry, looked up): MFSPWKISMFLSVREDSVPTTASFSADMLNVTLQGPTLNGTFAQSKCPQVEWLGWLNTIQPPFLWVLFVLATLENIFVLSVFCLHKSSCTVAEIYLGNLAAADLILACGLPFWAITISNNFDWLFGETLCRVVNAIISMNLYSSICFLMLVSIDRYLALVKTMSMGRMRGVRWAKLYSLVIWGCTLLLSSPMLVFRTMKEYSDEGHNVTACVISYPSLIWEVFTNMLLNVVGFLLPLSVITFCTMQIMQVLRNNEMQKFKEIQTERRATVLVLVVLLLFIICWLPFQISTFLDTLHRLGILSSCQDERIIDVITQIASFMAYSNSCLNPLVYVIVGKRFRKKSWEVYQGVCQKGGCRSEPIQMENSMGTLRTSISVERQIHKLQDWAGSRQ
# Chain of UniProt P34972 (whole entry, unmodified, looked up): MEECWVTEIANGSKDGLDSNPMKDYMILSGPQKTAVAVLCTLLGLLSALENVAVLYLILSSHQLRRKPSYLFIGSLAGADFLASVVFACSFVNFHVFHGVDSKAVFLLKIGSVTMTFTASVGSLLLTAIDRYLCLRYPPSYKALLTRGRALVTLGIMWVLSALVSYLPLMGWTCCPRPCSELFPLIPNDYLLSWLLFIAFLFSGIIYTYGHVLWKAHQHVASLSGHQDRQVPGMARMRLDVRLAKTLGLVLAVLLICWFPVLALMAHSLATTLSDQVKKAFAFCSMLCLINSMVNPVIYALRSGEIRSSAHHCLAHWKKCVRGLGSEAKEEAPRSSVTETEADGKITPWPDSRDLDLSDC
# Chain of UniProt P09619 (whole entry, looked up): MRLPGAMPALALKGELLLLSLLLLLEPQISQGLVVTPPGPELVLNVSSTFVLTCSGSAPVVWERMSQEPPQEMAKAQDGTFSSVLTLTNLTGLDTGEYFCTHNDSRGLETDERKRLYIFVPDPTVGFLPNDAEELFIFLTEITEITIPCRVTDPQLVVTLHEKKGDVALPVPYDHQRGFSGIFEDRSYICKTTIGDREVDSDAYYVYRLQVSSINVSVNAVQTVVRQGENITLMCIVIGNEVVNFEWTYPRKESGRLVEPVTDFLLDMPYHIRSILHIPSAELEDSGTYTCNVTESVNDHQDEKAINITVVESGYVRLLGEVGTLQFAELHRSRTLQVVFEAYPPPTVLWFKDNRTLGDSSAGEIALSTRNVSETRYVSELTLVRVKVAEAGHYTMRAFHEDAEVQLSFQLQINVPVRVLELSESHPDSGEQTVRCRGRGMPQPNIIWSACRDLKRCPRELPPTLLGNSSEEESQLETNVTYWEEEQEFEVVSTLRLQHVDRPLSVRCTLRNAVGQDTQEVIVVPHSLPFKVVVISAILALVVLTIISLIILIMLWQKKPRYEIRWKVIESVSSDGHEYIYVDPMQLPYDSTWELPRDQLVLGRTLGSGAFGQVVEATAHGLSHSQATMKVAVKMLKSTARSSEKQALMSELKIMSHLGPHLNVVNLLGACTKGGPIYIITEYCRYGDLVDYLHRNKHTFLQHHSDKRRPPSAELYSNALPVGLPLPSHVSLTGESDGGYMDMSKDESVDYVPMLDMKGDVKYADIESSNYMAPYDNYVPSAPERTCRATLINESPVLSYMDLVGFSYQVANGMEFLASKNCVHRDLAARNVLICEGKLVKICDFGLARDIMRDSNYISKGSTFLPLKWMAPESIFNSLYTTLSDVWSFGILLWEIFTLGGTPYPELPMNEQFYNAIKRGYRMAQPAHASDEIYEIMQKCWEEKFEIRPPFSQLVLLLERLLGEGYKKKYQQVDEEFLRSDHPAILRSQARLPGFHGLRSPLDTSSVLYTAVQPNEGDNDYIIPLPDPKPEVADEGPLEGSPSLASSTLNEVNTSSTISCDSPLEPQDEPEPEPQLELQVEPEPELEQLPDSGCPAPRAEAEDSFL
SMILES,target or system,test,test system,setting,how to read,endpoint,value
Cc1sc2c(c1C)C(c1ccc(Cl)cc1)=NC(CC(=O)OC(C)(C)C)c1nnc(C)n1-2 (centres unmarked),"BDKRB2 (Homo sapiens, UniProt P30411)","ligand displacement, radioligand",,1 µM,,remaining binding,103%
CCOC(=O)C1=C(C)NC(=NN=C2C(=O)Nc3ccc(C)cc32)NC1c1ccc(F)cc1 (centres unmarked),tmk,"enzyme activity, inhibitor, absorbance",,1 µg/mL,,inhibition,69.6%
O=C1NC2(CC2)COc2ncc(F)cc2[C@H]2COCCN2c2ccn3ncc1c3n2,,,"Sprague-Dawley rat, female, serum","oral, 10 mg/kg/day, 4 weeks daily, end of recovery period",,alanine aminotransferase activity,21.6 ± 6.3 U/L
Cc1ccc2c(C(C[N+](=O)[O-])c3cccs3)c(-c3ccccc3)[nH]c2c1 (centres unmarked),"CNR1 (Homo sapiens, UniProt P21554, L165A)","Gαi1-γ2 dissociation, BRET",,,,Emax,87.3 ± 4.47%
CCCCCn1cc(C(=O)c2ccc3ccccc3c2)c2ccccc21,"CNR2 (Homo sapiens, UniProt P34972)","agonist, BRET",,,"relative to: Gαi1 over β-arrestin 2, reference agonist",bias factor (ΔΔlog(Emax/EC50)),-0.71
COc1ccccc1C(C[N+](=O)[O-])c1c(-c2ccccc2)[nH]c2ccccc12 (centres unmarked),"CNR1 (Homo sapiens, UniProt P21554, I245F)","Gαi1-γ2 dissociation, BRET",,,,Emax,90 ± 11.9%
CCCCCn1cc(C(=O)c2cccc3ccccc23)c2ccccc21,"CNR1 (Homo sapiens, UniProt P21554, H178A)","Gαi1 engagement, agonist, BRET",,,relative to: reference agonist at wild-type CB1,Emax,62.6 ± 2.9%
CCOC(=O)C1=C(C)NC(=S)NC1c1ccc([N+](=O)[O-])o1 (racemic),tmk,"enzyme activity, inhibitor, absorbance",,10 µg/mL,,inhibition,79.3%
CCCCCn1cc(C(=O)c2ccc3c(c2)CC(C)(C)C3)c2ccccc21,"CNR1 (Homo sapiens, UniProt P21554)","agonist, BRET",,,"relative to: Gαi1 over β-arrestin 2, reference agonist",bias factor (ΔΔlog(Emax/EC50)),0.21
O=C(NC1CCN(c2ncnc3[nH]cnc23)CC1)c1cccc(NS(=O)(=O)c2ccc(C(F)(F)F)cc2)c1,"Replicase polyprotein 1ab, nsp14 (rep, Human coronavirus 229E, UniProt P0C6X1)",enzyme activity,,0.7812 µM,,inhibition,12.5%
Nc1ccc(/C=C/C(=O)N2CCc3c(oc4c(-c5ccc(F)cc5)cc(-c5ccc(C(=O)N6CCC(F)(F)CC6)cn5)cc34)C2)cn1,"PDGFRB (Homo sapiens, UniProt P09619)","binding, competition with immobilised ligand",,1 µM,,remaining binding,98%

# Repeated from above:
SMILES,target or system,test,test system,setting,how to read,endpoint,value
Nc1ccc(/C=C/C(=O)N2CCc3c(oc4c(-c5ccc(F)cc5)cc(-c5ccc(C(=O)N6CCC(F)(F)CC6)cn5)cc34)C2)cn1,"PDGFRB (Homo sapiens, UniProt P09619)","binding, competition with immobilised ligand",,1 µM,,remaining binding,98%
O=C(NC1CCN(c2ncnc3[nH]cnc23)CC1)c1cccc(NS(=O)(=O)c2ccc(C(F)(F)F)cc2)c1,"Replicase polyprotein 1ab, nsp14 (rep, Human coronavirus 229E, UniProt P0C6X1)",enzyme activity,,0.7812 µM,,inhibition,12.5%
